Assay results gathered from unrelated publications.
Protocols differ between the studies behind these lines. Values joined by “and” are separate records of one study, mostly repeats; a detail may differ. Numbers after ± are the reported error.

SMILES = CC(C)(C)NCC(SS(=O)(=O)O)c1ccccc1 (stereo not shown); target or system = Schistosoma mansoni; assay = perfusion day 52; test system = infected Swiss Webster mice; conditions = 600 mg/kg single dose, dosed day 7 post-infection; scale = baseline: vehicle control; measurement = body weight decrease; value = 2.47%
SMILES = O=S(=O)(c1ccc(-c2ccc3ncnc(Nc4ccc(OCc5cccc(Cl)c5)c(Cl)c4)c3c2)cc1)N1CCOCC1; target or system = Leishmania major; assay = intracellular amastigote growth, luciferase; test system = RAW264.7 macrophages; measurement = EC50; value = 1.1 µM
SMILES = COC(=O)Nc1nc2cc(C(O)c3ccc(F)cc3)ccc2[nH]1 (stereo not shown); target or system = Salmonella typhimurium; assay = Ames preincubation test; test system = TA98; conditions = 54.7 µg/plate, without S9; measurement = revertants; value = 22 revertants/plate
SMILES = CCCCCC(=O)N[C@H](C(=O)N[C@@H](CCCC)C(=O)N[C@@H](CC(C)C)C(=O)[C@@]1(C)CO1)C(C)C; target or system = Trypanosoma brucei brucei; test system = HepG2 cells, Lister 427; scale = baseline: HepG2 CC50 over T. brucei EC50; measurement = selectivity index; value = < 1
SMILES = CC(C)OCCOCc1ccc(OCC(O)CN(N=O)C(C)C)cc1 (stereo not shown); target or system = Salmonella typhimurium; assay = Ames test; test system = TA98; conditions = 5000 µg/plate, without metabolic activation; scale = baseline: solvent control; measurement = revertant fold increase; value = 0.2 fold
SMILES = CCN(CC)CC#CCNc1ccnc2cc(Cl)ccc12; target or system = Salmonella typhimurium; assay = mini-Ames test; test system = TA102; conditions = 250.0 µg/well, with rat liver S9; measurement = mean revertants; value = 82 revertants/well
SMILES = CCCCCC(=O)NC(CC(=O)N(CC)CC)C(=O)NC(Cc1ccc(F)cc1)C(=O)NC(Cc1ccc(F)cc1F)C(=O)C1(C)CO1 (stereo not shown); target or system = Trypanosoma brucei brucei; test system = HepG2 cells, Lister 427; scale = baseline: HepG2 CC50 over T. brucei EC50; measurement = selectivity index; value = > 80 and 155
SMILES = C[n+]1cc(/C=N/NC(=O)c2ccc3ccc4ccc(C(=O)N/N=C/c5cc6ccccc6[n+](C)c5)nc4c3n2)cc2ccccc21; target or system = hp2 hairpin duplex DNA; assay = FRET melting; conditions = 1 µM, added: ds26 10 µM; measurement = ΔTm; value = 0.6 ± 0.3 °C
SMILES = O=C1NC2(CC2)COc2ncc(F)cc2[C@H]2COCCN2c2ccn3ncc1c3n2; target or system = Salmonella typhimurium; assay = Ames test; test system = TA102; conditions = 500 µg/plate, 48 h, added: rat liver S9; measurement = revertant colonies; value = 422 ± 10 revertants/plate
SMILES = Fc1cccc(COc2ccc(Nc3ncnc4ccc(-c5cccc(N6CCSCC6)c5)cc34)cc2Cl)c1; target or system = Leishmania major; assay = intracellular amastigote growth, luciferase; test system = RAW264.7 macrophages; measurement = EC50; value = 10 µM
SMILES = CCN(CC)C(=O)CC(NC(=O)CCc1ccccc1)C(=O)NC(Cc1ccc(F)cc1)C(=O)NC(Cc1ccc(F)cc1F)C(=O)C1(C)CO1 (stereo not shown); target or system = Trypanosoma brucei brucei; test system = HepG2 cells, Lister 427; scale = baseline: HepG2 CC50 over T. brucei EC50; measurement = selectivity index; value = 64
SMILES = CC[n+]1cccc2cc(/C=N/NC(=O)c3cccc(C(=O)N/N=C/c4ccc5c(ccc[n+]5CC)c4)n3)ccc21; target or system = hp2 hairpin duplex DNA; assay = FRET melting; conditions = 1 µM, added: ds26 10 µM; measurement = ΔTm; value = 1.3 ± 0.2 °C
SMILES = O=C1C2CC3CC1CC(C(=O)N1CCN(c4ccc([N+](=O)[O-])c5ncccc45)CC1)(C3)C2; target or system = Salmonella typhimurium; assay = Ames test; test system = TA100; conditions = 0.13 µg/well, with S9; scale = baseline: vehicle; measurement = revertant fold increase; value = 0.9
